# Experimental data of several laboratories.
# Each line is one published result; not all experiments were run side by side. Numbers after ± are the reported error.
# CNR1: Cannabinoid receptor 1 (CNR1, Homo sapiens, UniProt P21554)
# UniProt P21554, sequence (whole entry, unmodified, looked up): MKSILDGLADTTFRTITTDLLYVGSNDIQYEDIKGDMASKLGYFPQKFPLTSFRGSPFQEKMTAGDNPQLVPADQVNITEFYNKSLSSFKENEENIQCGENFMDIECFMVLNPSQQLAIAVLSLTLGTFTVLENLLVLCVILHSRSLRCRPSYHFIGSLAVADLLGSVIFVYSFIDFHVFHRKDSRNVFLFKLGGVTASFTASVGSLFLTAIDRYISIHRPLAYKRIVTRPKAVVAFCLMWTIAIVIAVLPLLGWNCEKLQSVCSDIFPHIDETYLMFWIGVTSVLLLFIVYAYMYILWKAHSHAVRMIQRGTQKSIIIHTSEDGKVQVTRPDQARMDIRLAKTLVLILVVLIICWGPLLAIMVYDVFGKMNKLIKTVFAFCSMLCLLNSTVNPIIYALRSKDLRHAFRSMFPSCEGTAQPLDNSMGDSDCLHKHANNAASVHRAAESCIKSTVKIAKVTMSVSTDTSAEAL
# HCK Y522F: Tyrosine-protein kinase HCK (HCK, Homo sapiens, UniProt P08631, Y522F)
# UniProt P08631, sequence (whole entry, unmodified, looked up): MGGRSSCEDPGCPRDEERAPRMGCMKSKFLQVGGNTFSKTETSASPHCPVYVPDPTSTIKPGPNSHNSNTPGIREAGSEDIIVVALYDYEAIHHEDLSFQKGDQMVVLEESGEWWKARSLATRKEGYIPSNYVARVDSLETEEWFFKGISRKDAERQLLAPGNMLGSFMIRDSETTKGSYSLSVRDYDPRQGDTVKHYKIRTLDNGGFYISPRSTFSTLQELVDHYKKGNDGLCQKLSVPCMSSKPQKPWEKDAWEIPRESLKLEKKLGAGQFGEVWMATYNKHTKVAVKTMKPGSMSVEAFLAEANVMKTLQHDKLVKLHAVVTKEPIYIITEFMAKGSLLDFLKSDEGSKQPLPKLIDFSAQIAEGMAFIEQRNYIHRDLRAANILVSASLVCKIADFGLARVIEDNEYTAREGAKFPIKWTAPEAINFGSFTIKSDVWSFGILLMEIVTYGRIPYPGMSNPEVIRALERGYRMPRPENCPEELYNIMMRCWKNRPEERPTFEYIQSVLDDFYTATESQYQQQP
# UniProt P25021, sequence (whole entry, looked up): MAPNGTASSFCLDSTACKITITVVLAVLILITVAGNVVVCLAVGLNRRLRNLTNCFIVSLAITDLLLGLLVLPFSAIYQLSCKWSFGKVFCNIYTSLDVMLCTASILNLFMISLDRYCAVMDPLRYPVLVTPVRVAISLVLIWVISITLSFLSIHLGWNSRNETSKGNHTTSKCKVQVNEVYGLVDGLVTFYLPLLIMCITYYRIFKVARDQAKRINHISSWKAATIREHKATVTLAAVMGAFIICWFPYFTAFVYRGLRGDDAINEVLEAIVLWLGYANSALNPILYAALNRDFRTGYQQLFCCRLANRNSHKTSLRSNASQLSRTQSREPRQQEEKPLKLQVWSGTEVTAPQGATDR
# UniProt P14060, sequence (whole entry, looked up): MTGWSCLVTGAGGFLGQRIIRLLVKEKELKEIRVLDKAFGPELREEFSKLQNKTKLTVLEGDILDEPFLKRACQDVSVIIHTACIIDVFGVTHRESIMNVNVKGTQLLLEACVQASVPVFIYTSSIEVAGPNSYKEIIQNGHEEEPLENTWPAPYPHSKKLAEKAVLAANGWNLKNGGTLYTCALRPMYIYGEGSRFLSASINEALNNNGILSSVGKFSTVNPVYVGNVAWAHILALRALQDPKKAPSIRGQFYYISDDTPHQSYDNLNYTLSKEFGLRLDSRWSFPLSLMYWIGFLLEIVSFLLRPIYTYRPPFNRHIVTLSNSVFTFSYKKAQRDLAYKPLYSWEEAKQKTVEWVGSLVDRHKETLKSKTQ
# UniProt P13128, sequence (whole entry, looked up): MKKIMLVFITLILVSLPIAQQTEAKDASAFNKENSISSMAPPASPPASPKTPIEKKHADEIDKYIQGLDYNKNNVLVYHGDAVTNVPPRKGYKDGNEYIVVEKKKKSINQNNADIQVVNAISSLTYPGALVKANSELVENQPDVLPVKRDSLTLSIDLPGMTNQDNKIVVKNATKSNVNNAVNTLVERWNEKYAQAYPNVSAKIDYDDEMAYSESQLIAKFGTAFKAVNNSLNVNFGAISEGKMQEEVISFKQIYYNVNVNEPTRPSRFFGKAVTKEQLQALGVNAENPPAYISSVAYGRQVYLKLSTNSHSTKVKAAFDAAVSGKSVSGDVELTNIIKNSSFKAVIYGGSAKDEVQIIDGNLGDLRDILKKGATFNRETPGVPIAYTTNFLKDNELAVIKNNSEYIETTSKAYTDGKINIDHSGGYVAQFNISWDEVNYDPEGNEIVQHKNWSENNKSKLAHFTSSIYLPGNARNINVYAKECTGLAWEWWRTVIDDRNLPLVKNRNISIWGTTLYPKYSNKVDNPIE
# UniProt Q14790, sequence (whole entry, looked up): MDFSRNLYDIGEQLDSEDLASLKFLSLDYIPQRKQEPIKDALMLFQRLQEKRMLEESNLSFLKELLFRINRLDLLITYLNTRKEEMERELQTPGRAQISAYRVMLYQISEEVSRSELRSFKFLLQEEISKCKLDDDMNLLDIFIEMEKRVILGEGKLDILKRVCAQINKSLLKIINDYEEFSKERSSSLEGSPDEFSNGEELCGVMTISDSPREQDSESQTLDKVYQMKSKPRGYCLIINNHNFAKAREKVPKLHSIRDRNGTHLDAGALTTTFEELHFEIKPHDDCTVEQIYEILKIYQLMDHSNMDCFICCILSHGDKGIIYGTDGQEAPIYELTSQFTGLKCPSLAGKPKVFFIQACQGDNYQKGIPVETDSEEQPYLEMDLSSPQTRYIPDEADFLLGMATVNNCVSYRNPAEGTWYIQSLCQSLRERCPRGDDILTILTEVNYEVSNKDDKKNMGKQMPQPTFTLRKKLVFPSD
# UniProt O95619, sequence (whole entry, looked up): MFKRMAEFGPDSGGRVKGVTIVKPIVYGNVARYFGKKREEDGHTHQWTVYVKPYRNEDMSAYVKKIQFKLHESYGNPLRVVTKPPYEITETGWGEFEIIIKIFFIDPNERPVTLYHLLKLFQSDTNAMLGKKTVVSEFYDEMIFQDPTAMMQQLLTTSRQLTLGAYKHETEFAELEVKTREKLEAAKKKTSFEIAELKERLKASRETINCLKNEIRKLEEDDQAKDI
# UniProt P34972, sequence (whole entry, looked up): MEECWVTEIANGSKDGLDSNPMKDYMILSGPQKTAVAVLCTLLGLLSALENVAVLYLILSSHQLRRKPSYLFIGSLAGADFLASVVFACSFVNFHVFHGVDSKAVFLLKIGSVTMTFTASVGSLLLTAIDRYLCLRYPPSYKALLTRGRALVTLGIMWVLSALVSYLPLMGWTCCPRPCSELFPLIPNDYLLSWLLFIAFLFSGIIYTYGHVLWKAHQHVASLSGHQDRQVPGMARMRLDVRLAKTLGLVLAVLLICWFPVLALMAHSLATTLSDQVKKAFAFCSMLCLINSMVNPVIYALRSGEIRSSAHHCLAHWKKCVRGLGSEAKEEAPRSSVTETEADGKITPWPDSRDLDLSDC
# UniProt P41143, sequence (whole entry, unmodified, looked up): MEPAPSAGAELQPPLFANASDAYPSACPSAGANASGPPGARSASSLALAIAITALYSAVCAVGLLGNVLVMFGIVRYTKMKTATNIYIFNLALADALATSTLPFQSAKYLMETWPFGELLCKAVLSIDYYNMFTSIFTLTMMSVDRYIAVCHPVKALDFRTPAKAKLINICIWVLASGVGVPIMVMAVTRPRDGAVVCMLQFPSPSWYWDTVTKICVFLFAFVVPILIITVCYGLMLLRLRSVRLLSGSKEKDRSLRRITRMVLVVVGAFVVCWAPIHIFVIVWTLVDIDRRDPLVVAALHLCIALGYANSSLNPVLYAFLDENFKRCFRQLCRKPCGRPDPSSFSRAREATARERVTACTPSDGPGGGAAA
# UniProt P31391, sequence (whole entry, looked up): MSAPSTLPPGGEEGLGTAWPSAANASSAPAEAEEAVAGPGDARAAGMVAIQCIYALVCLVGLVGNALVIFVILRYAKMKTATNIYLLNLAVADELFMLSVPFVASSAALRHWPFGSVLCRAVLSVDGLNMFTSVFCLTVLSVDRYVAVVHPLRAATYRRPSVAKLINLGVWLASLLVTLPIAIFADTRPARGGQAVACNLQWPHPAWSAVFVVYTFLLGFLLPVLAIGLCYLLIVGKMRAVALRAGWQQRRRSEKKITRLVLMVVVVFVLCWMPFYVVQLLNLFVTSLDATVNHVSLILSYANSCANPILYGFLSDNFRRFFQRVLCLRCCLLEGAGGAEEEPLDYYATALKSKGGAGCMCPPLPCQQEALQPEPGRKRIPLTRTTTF
# UniProt Q01959, sequence (whole entry, unmodified, looked up): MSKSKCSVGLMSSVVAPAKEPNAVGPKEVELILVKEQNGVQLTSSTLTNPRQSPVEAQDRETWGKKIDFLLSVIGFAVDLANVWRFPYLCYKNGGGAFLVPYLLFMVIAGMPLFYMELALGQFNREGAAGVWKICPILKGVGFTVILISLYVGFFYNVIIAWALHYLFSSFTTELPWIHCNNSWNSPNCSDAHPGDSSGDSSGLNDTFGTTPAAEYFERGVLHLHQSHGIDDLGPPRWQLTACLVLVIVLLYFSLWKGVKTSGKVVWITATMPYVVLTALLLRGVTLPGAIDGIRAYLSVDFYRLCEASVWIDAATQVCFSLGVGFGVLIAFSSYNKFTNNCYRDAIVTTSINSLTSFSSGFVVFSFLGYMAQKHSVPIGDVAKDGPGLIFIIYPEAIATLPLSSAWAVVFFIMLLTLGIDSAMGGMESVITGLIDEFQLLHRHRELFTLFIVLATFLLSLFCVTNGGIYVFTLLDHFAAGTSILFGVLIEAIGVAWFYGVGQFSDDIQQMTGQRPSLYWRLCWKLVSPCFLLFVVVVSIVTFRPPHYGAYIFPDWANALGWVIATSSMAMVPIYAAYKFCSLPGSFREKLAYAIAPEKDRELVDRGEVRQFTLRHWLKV
Structure (SMILES),target,assay,system,setting,endpoint,result
CCCCCn1cc(C(=O)c2ccc3c(c2)CC(C)(C)C3)c2ccccc21,CNR1,"cAMP, agonist",,,EC50,0.562 µM
C=CC(=O)N1CCC[C@@H](n2nc(-c3ccc(Cl)cc3)c3c(N)ncnc32)C1,"Tyrosine-protein kinase HCK (HCK, Homo sapiens, UniProt P08631, S340C)",,,,Ki,< 0.006 µM
CCN(CC)C(=O)[C@@H]1C=C2c3cccc4c3c(cn4C(=O)c3ccco3)C[C@H]2N(C)C1,"Histamine H2 receptor (HRH2, Homo sapiens, UniProt P25021)","ligand displacement, radioligand",,,Ki,1.03 µM
CC(C)n1nc(-c2ccc3cc(OCc4cccc(Cl)c4)ccc3c2)c2c(N)ncnc21,HCK Y522F,,,,Ki,1.34 µM
Cc1ccc2c(C(C[N+](=O)[O-])c3cccs3)c(-c3ccccc3)[nH]c2c1 (stereo not shown),"Cannabinoid receptor 1 (CNR1, Homo sapiens, UniProt P21554, I245F)","β-arrestin recruitment, agonist, luciferase",,,EC50,0.11 µM
CC(C)CC(C(=O)N1CC2(CC1C#N)C(=O)Nc1ccccc12)N(C)C(=O)c1cc2c(F)cc(F)c(F)c2[nH]1 (stereo not shown),"Caspase-8 (CASP8, Homo sapiens, UniProt Q14790)","enzyme activity, inhibitor",,,IC50,22.5 µM
CCN(CC)C(=O)c1ccc(C(c2cccc(O)c2)N2CC(C)N(Cc3ccccc3)CC2C)cc1 (stereo not shown),"Delta-type opioid receptor (OPRD1, Homo sapiens, UniProt P41143, G73V)",,,,Ki,0.00026 ± 2e-05 µM
CCC[C@@H](C(=O)c1ccccc1)N1CCCC1,"Sodium-dependent dopamine transporter (SLC6A3, Homo sapiens, UniProt Q01959)","dopamine uptake, inhibitor",HEK293 transiently transfected,"DAT S149A/S429G mutant, with: [3H]dopamine",Ki,0.012 µM
Nc1ncnc2c1c(-c1ccc(Oc3ccccc3)cc1)nn2C1CCCC1,"Proto-oncogene tyrosine-protein kinase Src (SRC, Gallus gallus, UniProt P00523, G530I/P529E/Q528E)","enzyme activity, inhibitor",,,Ki,< 0.02 µM
CC(=O)NC1C(OC2C(CO)OC(OC3C(CO)OC(O)C(O)C3O)C(O)C2OC2(C(=O)O)CC(O)C(NC(C)=O)C(C(O)C(CO)OC3(C(=O)O)CC(O)C(NC(C)=O)C(C(O)C(CO)OC4(C(=O)O)CC(O)C(NC(C)=O)C(C(O)C(O)CO)O4)O3)O2)OC(CO)C(O)C1O (stereo not shown),"hly (Listeria monocytogenes, UniProt P13128)",binding,,,Kd,0.0019 µM
C[C@]12CC[C@H](O)CC1=CC[C@@H]1[C@@H]2CC[C@]2(C)C(=O)CC[C@@H]12,"3 beta-hydroxysteroid dehydrogenase/Delta 5-->4-isomerase type 1 (HSD3B1, Homo sapiens, UniProt P14060)","binding, SPR",,,Kd,3.46 µM
CCCc1ccc(-c2cccc(-c3nc4ccc5cc(C(=O)O)cc(O)c5c4[nH]3)c2)cc1,"relA, residues 53-446 (Mycobacterium tuberculosis, UniProt P9WHG9)","enzyme activity, inhibitor, fluorescence polarization",,,IC50,3.98 µM
CCCCCn1cc(C(=O)c2cccc3ccccc23)c2ccccc21,CNR1,"GαoA activation, agonist, BRET",,,EC50,0.0263 µM
CSCC[C@H](NC(=O)[C@@H]1CSSC[C@H](NC(=O)[C@H](CCCCN)NC(=O)[C@H](Cc2ccc(O)cc2)NC(=O)CNC(=O)[C@@H](N)CC(C(=O)O)C(=O)O)C(=O)N[C@@H](C(C)C)C(=O)N[C@H](Cc2c[nH]c3ccccc23)C(=O)N[C@@H](CCCCN)C(=O)N[C@@H]([C@@H](C)O)C(=O)N1)C(=O)N1C[C@H](O)C[C@H]1C(=O)N[C@@H](C)C(=O)O,"Somatostatin receptor type 4 (SSTR4, Homo sapiens, UniProt P31391)","β-arrestin recruitment, agonist",,,EC50,5.05 µM
COc1ccccc1C(C[N+](=O)[O-])c1c(-c2ccccc2)[nH]c2ccccc12 (stereo not shown),"Cannabinoid receptor 1 (CNR1, Homo sapiens, UniProt P21554, W241A)","G protein activation, agonist, BRET",,,EC50,> 1000 µM
CC(=O)NCCCC[C@H](NC(=O)[C@H](CCCNC(=N)N)NC(=O)[C@H](C)N)C(=O)N[C@@H](CO)C(=O)N[C@H](C(=O)NCC(=O)NCC(=O)N[C@@H](CCCCN)C(=O)N[C@@H](C)C(=O)N1CCC[C@H]1C(=O)N[C@@H](CCCNC(=N)N)C(=O)N[C@@H](CCCCN)C(=O)N[C@@H](CCC(N)=O)C(=O)O)[C@@H](C)O,"YEATS domain-containing protein 4, YEATS domain (Homo sapiens, UniProt O95619)",isothermal titration calorimetry,,"pH 7.6, 25 °C, with: histone peptide",Kd,300 ± 14 µM
CCCCCn1cc(C(=O)c2ccc3ccccc3c2)c2ccccc21,"Cannabinoid receptor 2 (CNR2, Homo sapiens, UniProt P34972)","cAMP, agonist",,,EC50,0.0115 µM
CC(C)n1nc(-c2ccc3cc(OCc4ccccc4)ccc3c2)c2c(N)ncnc21,HCK Y522F,"enzyme activity, inhibitor",,,Ki,1.1 µM
O=[N+]([O-])CC(c1ccco1)c1c(-c2ccccc2)[nH]c2ccccc12 (stereo not shown),"Cannabinoid receptor 1 (CNR1, Homo sapiens, UniProt P21554, I245M)","G protein activation, agonist, BRET",,,EC50,0.26 µM
